Measurements from different studies.
“And” joins repeats or separate records; there may be more than shown.
DRD4: D(4) dopamine receptor (DRD4, Homo sapiens, UniProt P21917)
UniProt P21917, sequence (whole entry, looked up): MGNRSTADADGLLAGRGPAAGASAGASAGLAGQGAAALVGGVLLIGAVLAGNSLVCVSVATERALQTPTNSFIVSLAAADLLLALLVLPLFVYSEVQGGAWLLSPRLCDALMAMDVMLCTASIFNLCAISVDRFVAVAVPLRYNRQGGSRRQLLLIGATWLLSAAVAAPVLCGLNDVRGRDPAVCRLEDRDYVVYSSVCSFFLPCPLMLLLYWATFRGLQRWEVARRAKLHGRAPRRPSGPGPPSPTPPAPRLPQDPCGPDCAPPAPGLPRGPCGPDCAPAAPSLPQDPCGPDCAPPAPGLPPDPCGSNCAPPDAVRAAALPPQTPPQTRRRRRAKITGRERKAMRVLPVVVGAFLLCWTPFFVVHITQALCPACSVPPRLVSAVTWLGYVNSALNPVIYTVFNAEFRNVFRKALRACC
Breakpoint cluster region protein GAP domain: Breakpoint cluster region protein, GAP domain (Homo sapiens, UniProt P11274)
UniProt P11274, sequence (whole entry, looked up): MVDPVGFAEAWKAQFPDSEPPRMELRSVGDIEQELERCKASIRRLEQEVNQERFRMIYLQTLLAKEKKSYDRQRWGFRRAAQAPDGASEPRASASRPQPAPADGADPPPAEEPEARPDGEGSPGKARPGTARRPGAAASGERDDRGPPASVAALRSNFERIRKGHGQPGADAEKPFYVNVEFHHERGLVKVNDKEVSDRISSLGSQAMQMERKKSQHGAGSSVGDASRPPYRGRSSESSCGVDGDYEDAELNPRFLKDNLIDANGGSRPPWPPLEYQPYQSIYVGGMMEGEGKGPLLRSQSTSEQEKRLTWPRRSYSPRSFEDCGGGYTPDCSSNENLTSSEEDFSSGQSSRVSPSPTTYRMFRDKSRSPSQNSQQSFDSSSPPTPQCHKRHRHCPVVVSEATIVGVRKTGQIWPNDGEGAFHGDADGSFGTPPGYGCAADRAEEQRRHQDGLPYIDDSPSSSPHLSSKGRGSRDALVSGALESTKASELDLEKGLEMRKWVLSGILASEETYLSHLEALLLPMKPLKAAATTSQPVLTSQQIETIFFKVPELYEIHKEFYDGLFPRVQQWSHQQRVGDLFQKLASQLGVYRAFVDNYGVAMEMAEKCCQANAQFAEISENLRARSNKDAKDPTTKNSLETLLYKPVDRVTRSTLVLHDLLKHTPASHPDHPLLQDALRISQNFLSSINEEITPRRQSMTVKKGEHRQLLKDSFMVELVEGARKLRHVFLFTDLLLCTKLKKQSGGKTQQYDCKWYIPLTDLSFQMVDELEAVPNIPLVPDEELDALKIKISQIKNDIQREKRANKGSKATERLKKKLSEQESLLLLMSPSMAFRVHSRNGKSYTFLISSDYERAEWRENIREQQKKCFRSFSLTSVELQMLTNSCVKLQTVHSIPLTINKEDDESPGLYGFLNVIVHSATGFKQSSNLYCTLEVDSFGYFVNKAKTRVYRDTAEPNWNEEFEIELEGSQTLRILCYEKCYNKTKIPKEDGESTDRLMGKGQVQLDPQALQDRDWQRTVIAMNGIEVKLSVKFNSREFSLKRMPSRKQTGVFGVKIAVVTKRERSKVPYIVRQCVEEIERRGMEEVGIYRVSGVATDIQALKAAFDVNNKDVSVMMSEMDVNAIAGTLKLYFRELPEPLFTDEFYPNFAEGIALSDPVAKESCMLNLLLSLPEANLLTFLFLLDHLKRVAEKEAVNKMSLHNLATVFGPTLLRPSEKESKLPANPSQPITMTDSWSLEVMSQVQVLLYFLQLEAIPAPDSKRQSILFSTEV
Neutral cholesterol ester hydrolase 1: Neutral cholesterol ester hydrolase 1 (Mus musculus, UniProt Q8BLF1)
UniProt Q8BLF1, sequence (whole entry, looked up): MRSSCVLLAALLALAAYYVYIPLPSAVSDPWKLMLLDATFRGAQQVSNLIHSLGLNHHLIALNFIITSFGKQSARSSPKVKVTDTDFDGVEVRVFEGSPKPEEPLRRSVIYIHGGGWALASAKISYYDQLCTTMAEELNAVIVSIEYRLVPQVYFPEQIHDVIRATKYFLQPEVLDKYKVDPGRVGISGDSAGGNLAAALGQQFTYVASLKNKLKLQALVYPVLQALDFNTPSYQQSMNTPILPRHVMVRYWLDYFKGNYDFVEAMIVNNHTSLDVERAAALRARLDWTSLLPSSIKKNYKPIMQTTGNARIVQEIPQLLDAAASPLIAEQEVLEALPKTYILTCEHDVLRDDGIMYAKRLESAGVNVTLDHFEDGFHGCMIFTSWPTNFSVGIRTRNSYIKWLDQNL
SPHK1: Sphingosine kinase 1 (SPHK1, Homo sapiens, UniProt Q9NYA1)
UniProt Q9NYA1, sequence (whole entry, looked up): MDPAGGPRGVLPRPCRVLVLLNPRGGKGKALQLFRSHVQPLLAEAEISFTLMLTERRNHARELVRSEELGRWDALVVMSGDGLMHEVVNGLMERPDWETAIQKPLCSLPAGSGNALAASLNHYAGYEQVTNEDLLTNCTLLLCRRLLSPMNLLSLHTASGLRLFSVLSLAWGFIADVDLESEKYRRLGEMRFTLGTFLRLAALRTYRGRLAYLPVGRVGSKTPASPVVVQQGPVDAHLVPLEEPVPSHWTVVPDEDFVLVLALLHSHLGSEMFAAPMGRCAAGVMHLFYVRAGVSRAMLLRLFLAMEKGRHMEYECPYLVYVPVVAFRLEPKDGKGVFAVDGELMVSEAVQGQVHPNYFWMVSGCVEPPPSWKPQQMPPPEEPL
PARP2: Poly [ADP-ribose] polymerase 2 (PARP2, Homo sapiens, UniProt Q9UGN5)
UniProt Q9UGN5, sequence (whole entry, looked up): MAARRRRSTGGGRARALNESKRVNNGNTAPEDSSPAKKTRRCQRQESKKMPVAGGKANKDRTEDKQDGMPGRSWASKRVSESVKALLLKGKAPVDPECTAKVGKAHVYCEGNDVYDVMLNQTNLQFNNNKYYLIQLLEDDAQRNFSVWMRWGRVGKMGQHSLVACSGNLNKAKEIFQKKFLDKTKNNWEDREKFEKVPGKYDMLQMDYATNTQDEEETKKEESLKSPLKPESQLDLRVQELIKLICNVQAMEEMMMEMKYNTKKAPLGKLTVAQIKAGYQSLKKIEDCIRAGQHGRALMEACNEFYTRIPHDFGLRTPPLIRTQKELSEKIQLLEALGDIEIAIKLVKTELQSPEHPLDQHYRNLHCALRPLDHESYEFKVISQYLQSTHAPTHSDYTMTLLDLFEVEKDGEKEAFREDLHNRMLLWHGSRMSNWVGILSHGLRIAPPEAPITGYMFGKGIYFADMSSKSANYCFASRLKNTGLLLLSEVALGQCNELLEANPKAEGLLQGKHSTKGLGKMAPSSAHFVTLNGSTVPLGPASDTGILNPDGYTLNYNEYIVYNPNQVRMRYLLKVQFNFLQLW
ADORA2B: Adenosine receptor A2b (ADORA2B, Homo sapiens, UniProt P29275)
UniProt P29275, sequence (whole entry, looked up): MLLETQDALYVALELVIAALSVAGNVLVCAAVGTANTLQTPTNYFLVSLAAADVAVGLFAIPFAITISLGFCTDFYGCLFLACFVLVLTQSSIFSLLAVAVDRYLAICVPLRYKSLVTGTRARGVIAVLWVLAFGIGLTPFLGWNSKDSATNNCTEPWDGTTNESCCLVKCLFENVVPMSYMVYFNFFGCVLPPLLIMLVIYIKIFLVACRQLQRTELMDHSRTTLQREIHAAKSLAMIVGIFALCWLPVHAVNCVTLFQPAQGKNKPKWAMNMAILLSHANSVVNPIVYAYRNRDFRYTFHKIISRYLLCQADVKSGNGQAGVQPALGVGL
HDAC3: Histone deacetylase 3 (HDAC3, Homo sapiens, UniProt O15379)
UniProt O15379, sequence (whole entry, looked up): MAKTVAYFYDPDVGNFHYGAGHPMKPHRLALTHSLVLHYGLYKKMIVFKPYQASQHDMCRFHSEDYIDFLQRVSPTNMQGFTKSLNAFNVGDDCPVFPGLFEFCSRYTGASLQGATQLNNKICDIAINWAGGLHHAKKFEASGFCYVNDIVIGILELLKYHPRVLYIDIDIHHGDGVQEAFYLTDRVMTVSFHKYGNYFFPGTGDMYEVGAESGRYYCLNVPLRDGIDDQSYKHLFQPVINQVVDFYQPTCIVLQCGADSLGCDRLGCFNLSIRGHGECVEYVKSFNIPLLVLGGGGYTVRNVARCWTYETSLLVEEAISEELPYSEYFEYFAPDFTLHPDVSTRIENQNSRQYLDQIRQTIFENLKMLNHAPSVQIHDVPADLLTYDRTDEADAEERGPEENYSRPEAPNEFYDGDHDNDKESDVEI
PLAT: Tissue-type plasminogen activator (PLAT, Homo sapiens, UniProt P00750)
UniProt P00750, sequence (whole entry, looked up): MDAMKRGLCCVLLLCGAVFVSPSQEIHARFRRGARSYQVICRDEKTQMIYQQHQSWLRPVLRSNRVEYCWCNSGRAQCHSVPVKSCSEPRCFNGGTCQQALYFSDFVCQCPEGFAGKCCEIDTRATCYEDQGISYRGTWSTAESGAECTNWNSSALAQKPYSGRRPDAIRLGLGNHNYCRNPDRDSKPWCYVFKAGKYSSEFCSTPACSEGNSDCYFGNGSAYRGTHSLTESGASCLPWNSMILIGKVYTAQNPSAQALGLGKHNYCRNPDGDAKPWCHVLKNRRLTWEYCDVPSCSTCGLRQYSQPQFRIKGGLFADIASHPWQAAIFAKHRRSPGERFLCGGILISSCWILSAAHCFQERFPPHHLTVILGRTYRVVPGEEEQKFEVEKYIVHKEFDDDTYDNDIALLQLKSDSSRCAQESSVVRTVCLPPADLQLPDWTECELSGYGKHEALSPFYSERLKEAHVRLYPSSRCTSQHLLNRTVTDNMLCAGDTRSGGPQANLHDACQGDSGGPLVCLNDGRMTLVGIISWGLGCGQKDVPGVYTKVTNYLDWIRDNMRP
Lypla1: Acyl-protein thioesterase 1 (Lypla1, Mus musculus, UniProt P97823)
UniProt P97823, sequence (whole entry, looked up): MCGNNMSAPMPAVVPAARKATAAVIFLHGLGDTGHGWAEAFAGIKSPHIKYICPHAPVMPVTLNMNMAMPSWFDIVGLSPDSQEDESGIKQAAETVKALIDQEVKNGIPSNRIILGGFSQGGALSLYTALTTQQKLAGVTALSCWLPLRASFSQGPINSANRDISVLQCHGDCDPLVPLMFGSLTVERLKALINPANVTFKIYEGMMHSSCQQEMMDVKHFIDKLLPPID
UniProt P41144, sequence (whole entry, looked up): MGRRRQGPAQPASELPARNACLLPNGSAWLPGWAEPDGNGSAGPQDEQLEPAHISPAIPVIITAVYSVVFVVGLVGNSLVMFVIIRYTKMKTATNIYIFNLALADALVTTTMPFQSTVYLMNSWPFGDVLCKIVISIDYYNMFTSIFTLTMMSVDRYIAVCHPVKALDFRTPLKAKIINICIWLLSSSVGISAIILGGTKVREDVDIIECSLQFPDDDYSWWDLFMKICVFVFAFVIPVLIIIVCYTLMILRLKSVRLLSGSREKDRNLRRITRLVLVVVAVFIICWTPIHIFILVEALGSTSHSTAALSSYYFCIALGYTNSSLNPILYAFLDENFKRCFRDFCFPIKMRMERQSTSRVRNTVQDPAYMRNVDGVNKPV

`FC1(F)CCN(Cc2cn3ccccc3n2)CC1COc1cccc(Cl)n1` (centres unmarked) has an inhibition of 48% (DRD4; ligand displacement, radioligand; 10 µM).
With `Cc1ccc(C)n1-c1ccc(OCC(=O)O)cc1` the inhibition was 31.7% (Breakpoint cluster region protein GAP domain; GAP activity; 10 µM, selectivity counter screen).
The inhibition of `C=CC(=O)N1Cc2nc(-c3cc(-c4cc(Cl)cnc4Cl)c(F)cc3F)n(-c3ccncn3)c2C1` is reported as -12.6% (PIP4K2A (Homo sapiens, UniProt P48426); cell-free assay, inhibitor; 1 µM).
For `O=C(n1ccnn1)n1c2ccccc2c2ccccc21`, the inhibition was less than 50% (Neutral cholesterol ester hydrolase 1; probe labeling, inhibitor, gel-based competitive ABPP; mouse T-cell proteome; 1 µM, 30 min, 37 °C).
`C=CC(=O)Nc1cccc(-c2cnc3[nH]cc(C(=O)NC(C)(C)C)c3n2)c1` gave an inhibition of -2% and -6% (SPHK1; kinase activity; 0.1 µM).
With `CCN(CC)C(=O)n1ccnn1` the inhibition was less than 50% (Neutral cholesterol ester hydrolase 1; probe labeling, inhibitor, gel-based competitive ABPP; mouse T-cell proteome; 1 µM, 30 min, 37 °C).
`COc1cc(OC)c(F)c(/C=C/c2cnc3ccn(S(=O)(=O)c4cn(CCF)cn4)c3n2)c1F` gave an inhibition of 0% (EPHA2 (Homo sapiens, UniProt P29317); 10 nM).
With `C[C@@H]1CN(Cc2ccccc2)[C@H]2C[C@@H]1CC(=O)[C@@H]2C` the inhibition was 0% (OPRK1 (Cavia porcellus, UniProt P41144); binding, radioligand binding; guinea pig brain; 1 µM, added: [3H]U-69,593).
`O=C(CCCc1ccc2c(c1)OCCO2)NCCNC(=O)Cn1c(=O)[nH]c(=O)c2ccccc21` gave an inhibition of 15% (PARP1 (Homo sapiens, UniProt P09874); enzyme activity, inhibitor; 0.5 µM).
`CCn1cc(C(=O)O)c(=O)c2c(N)c(F)c(NC3CCCCC3)cc21` gave an inhibition of 3.4% (Cyclin-dependent kinase 1, with cyclin A1 (CDK1, Homo sapiens, UniProt P06493); kinase activity; 0.1 µM, added: ATP at Km).
With `C[Si]1(C[C@H](CN)CC(=O)O)CCCC1` the inhibition was 87% (Voltage-dependent calcium channel subunit alpha-2/delta-1 (Rattus norvegicus, UniProt P54290); binding, radioligand binding; rat cerebral cortex membranes; 70 µM, added: [3H]gabapentin).
`CC(C)Cn1c(SCC(=O)N2CCc3ccccc3C2)nc2cc(Cl)ccc2c1=O` gave an inhibition of -14% (SLC6A4 (Homo sapiens, UniProt P31645); ligand displacement, radioligand; 10 µM).
For `O=C(CC1CC2CCC1C2)NCCNC(=O)Cn1c(=O)[nH]c(=O)c2ccccc21` (centres unmarked), the inhibition was 0% (PARP2; enzyme activity, inhibitor; 5 nM).
`CNC(=O)C[C@H](Cc1ccc(C#N)cc1)NC(=O)c1cc(-c2ccc(CN[C@H](C)c3ccc(C)cc3)o2)ccc1Cl` has an inhibition of 8% (ADORA2B; agonist response, antagonist; human cells; 10 µM, A2B antagonist).
`O=C1c2sc(-c3ccc(N4CCC(CO)CC4)nc3F)nc2CCN1c1cccnc1` gave an inhibition of 8% (BRS3 (Homo sapiens, UniProt P32247); ligand displacement, radioligand; 1 µM).
With `Cc1c(OS(=O)(=O)Oc2ccc3ccccc3c2)cccc1C(=O)NO` the inhibition was 48% (HDAC8 (Homo sapiens, UniProt Q9BY41); enzyme activity, inhibitor, fluorescence; 10 µM).
For `CC(=O)NCCNCc1cc(Cl)c(OCc2cccc(-c3cccc(OCc4ccc(/C=C/C(=O)NO)cc4)c3)c2C)cc1OCc1cccc(C#N)c1`, the inhibition was 20.2% (HDAC3; enzyme activity, inhibitor; 1 µM).
The inhibition of `C[C@@H](O)[C@H](NC(=O)c1ccc(OCc2ccccc2)cc1)C(=O)N[C@@H](CCc1ccccc1)C(=O)NCc1ccccc1Cl` is reported as 18% (PLAT; enzyme activity, inhibitor; 100 µM).
`CC(=O)NCCNCc1cc(Cl)c(OCc2cccc(-c3cccc(OCCCCCCC(=O)NO)c3)c2C)cc1OCc1cccc(C#N)c1` gave an inhibition of 74.7% (HDAC3; enzyme activity, inhibitor; 1 µM).
With `CC1Cc2ccccc2N1C(=O)CN1CCN(Cc2ccccc2)CC1` (centres unmarked) the inhibition was 99.4% (DRD4; radioligand binding; concentration not given, added: [3H]N-methylspiperone).
`Cc1c(COc2cc(OCc3cccc(C#N)c3)c(CNC(CO)CO)cc2Cl)cccc1-c1cccc(OCCCCCCC(=O)NO)c1` gave an inhibition of 94% (HDAC3; enzyme activity, inhibitor; 1 µM).
`COc1ccc2nc(C)ccc2c1Nc1sn(C)c(=O)c1C#N` has an inhibition of 0% (PARP2; enzyme activity, inhibitor; 10 µM).
With `Clc1ccc(NCc2ccc(Br)cc2)cc1` the inhibition was 81.7% (Breakpoint cluster region protein GAP domain; GAP activity; 10 µM, selectivity counter screen).
The inhibition of `O=C1c2sc(-c3ccc(N4CCC(F)C4)nc3F)nc2CCN1c1cccnc1` (centres unmarked) is reported as -4% (ADORA2B; ligand displacement, radioligand; 1 µM).
With `CN(C)C/C=C/C(=O)Nc1ccc2nc(NCCCCCN(C)C)nc(NCCCCCCN(C)C)c2c1` the inhibition was 3% (DNMT1 (Homo sapiens, UniProt P26358); enzyme activity, inhibitor, radiometric; 10 µM).
For `CN(C(=O)n1ccnn1)c1ccccc1`, the inhibition was greater than 95% (sn-1-specific diacylglycerol lipase ABHD11 (Mus musculus, UniProt Q8K4F5); serine hydrolase activity, inhibitor, competitive gel-based ABPP; mouse T-cell proteome; 1 µM, 30 min, 37 °C).
`COc1ncc2nc(C)n(Cc3ncc(S(N)(=O)=O)cc3F)c2c1-c1ccccc1` gave an inhibition of 1.99% (GABA-A receptor; alpha-1/beta-2/gamma-2 (Homo sapiens, UniProt P14867+P18507+P47870); antagonist, cell-based; 10 µM).
For `CC(C)(C)CNC(=O)C[C@H](NC(=O)CCc1ccccc1)C(=O)N[C@@H](Cc1cccnc1)C(=O)NCc1ccccc1Cl`, the inhibition was 17% (PLAT; enzyme activity, inhibitor; 100 µM).
With `CN(Cc1ccc(/C=C/C(=O)NO)cc1)CC12CC3CC(CC(C3)C1)C2` the inhibition was -3% (MMP-1; enzyme activity; 0.05 µM).
`Cc1cc(C(=O)NCCNC(=O)c2cccc(COc3ccccc3C(N)=O)c2)n[nH]1` gave an inhibition of 100% (PARP2; enzyme activity, inhibitor; 0.104 µM).
The inhibition of `CC[C@H](C)[C@@H]1NC(=O)[C@H](Cc2ccccc2C(F)(F)F)NC(=O)CCSCc2cccc(n2)CSCCCNC(=O)[C@H](CCCCCC(=O)O)NC1=O` is reported as 30% (HDAC3; enzyme activity, inhibitor, fluorogenic; 30 µM).
With `CC(=O)C12NC(C)(C)CC1(C)C(=O)C1=C2c2c(c3c4n2C(C)(C)CC2=C4C4(CC(C)(C)NC(C)(C4)C2=O)CC3(C)C)C(=O)C(C)(C)N1` (single isomer, unassigned; (-)) the inhibition was 27% (SCN2A (Homo sapiens, UniProt Q99250); ion current; HEK293T; 40 µM).
For `CN1CCN(Cc2ccc(-c3ccc(CO[C@H]4CCC[C@@H]4NC(=O)c4cc(-c5cnn(C)c5)cnc4N)cc3)cc2)CC1`, the inhibition was -7% (SPHK1; enzyme activity, inhibitor; 0.1 µM).
The inhibition of `Cc1c(COc2cc(OCc3cccc(C#N)c3)c(CNCCO)cc2Cl)cccc1-c1cccc(OCCCCCCC(=O)NO)c1` is reported as 96.1% (HDAC3; enzyme activity, inhibitor; 1 µM).
The inhibition of `Cc1cccc(O[C@H]2CCC[C@@H](C(C)CNCc3ccncc3)C2)c1` (relative stereo) is reported as 5% (SPHK1; enzyme activity, inhibitor; 1 µM).
For `COc1ccc(CN2CC(COc3ccc(C)c(F)c3)CC(F)(F)C2)cc1F` (centres unmarked), inhibition read “inactive” (DRD4; binding, radioligand binding; 10 µM, outcome inactive, added: [3H]N-methylspiperone).
`O=C(N1CCOCC1)n1ccnn1` gave an inhibition of greater than 95% (Platelet-activating factor acetylhydrolase 2, cytoplasmic (Mus musculus, UniProt Q8VDG7); serine hydrolase activity, inhibitor, competitive gel-based ABPP; mouse T-cell proteome; 1 µM, 30 min, 37 °C).
`O=C(CN1CCN(C(=O)c2ccc(C(F)(F)F)cc2)CC1)Nc1cccc(C(=O)Nc2ccc3[nH]ncc3c2)c1` has an inhibition of 15% (NTRK3 (Homo sapiens, UniProt Q16288); enzyme activity, inhibitor, FRET; 1 µM).
`O=C(Nc1ccc(C(F)F)cc1)[C@H](CC1CCCCC1)Nc1nn2c(=O)ccnc2s1` has an inhibition of -8% (Receptor-type tyrosine-protein phosphatase mu (Homo sapiens, UniProt P28827); enzyme activity, inhibitor; 10 µM).
`C[Si](C)(C)C[C@@H](CN)CC(=O)O` has an inhibition of 2% (L-type calcium channel, rat; binding, radioligand binding; 75 µM).
The inhibition of `CN1CCN(C(=O)n2ccnn2)CC1` is reported as less than 50% (Lypla1; 1 µM).
The inhibition of `Cc1c(COc2cc(OCc3cccc(C#N)c3)c(CN3CCCC[C@@H]3C(=O)O)cc2Cl)cccc1-c1cccc(OCCCCCC(=O)NO)c1` is reported as 93.8% (HDAC3; enzyme activity, inhibitor; 1 µM).
For `CCOC(=O)C1(C)C(Br)=C(Cl)C(=O)N1c1ccc(F)cc1` (centres unmarked), the inhibition was -24% (Breakpoint cluster region protein GAP domain; GAP activity; 10 µM, selectivity counter screen).
For `C=CCN(CC=C)C(=O)n1ccnn1`, the inhibition was less than 50% (Neutral cholesterol ester hydrolase 1; probe labeling, inhibitor, gel-based competitive ABPP; mouse T-cell proteome; 1 µM, 30 min, 37 °C).
`COc1ccc2c(c1)C(CC(=O)NC(C(=O)NC(CCc1ccccc1)C(=O)NCc1ccc(C)cc1)C(C)O)CC2=O` (centres unmarked) gave an inhibition of 12% (PLAT; enzyme activity, inhibitor; 100 µM).
For `Cn1sc(Nc2c(Cl)ccc3ncccc23)c(C#N)c1=O`, the inhibition was 4% (PARP2; enzyme activity, inhibitor; 10 µM).
The inhibition of `CCn1cc(-c2cccc(C(F)(F)F)c2)c2sc(C(=N)NC3CCS(=O)(=O)CC3)cc2c1=O` is reported as 96.3% (BRD7 (Homo sapiens, UniProt Q9NPI1); 1 µM).
`CN(C)C(=O)n1ccnn1` gave an inhibition of less than 50% (Lypla1; 1 µM).
`O=C(O)C1Nc2ccc(Cl)cc2C2C=CCC12` (centres unmarked) gave an inhibition of 54.7% (Breakpoint cluster region protein GAP domain; GAP activity; 10 µM, selectivity counter screen).
With `CCCCCCC#Cc1cncc(-c2nnc(SCc3ccc([N+](=O)[O-])o3)n2C)c1` the inhibition was 67% (mraY (Staphylococcus aureus, UniProt Q2FZ93); cell-free assay, inhibitor; 250 µM).

Excerpt of the above:
With `CC1Cc2ccccc2N1C(=O)CN1CCN(Cc2ccccc2)CC1` (centres unmarked) the inhibition was 99.4% (DRD4; radioligand binding; concentration not given, added: [3H]N-methylspiperone).
`CCn1cc(C(=O)O)c(=O)c2c(N)c(F)c(NC3CCCCC3)cc21` gave an inhibition of 3.4% (Cyclin-dependent kinase 1, with cyclin A1 (CDK1, Homo sapiens, UniProt P06493); kinase activity; 0.1 µM, added: ATP at Km).
`FC1(F)CCN(Cc2cn3ccccc3n2)CC1COc1cccc(Cl)n1` (centres unmarked) has an inhibition of 48% (DRD4; ligand displacement, radioligand; 10 µM).
With `Cc1c(OS(=O)(=O)Oc2ccc3ccccc3c2)cccc1C(=O)NO` the inhibition was 48% (HDAC8 (Homo sapiens, UniProt Q9BY41); enzyme activity, inhibitor, fluorescence; 10 µM).
